Published values of several laboratories.
Every numbered part comes from another study and shows a few of its results, in no order. Changes are numbered by the printed parent chain.

Series 1 — method: protein-binding microarray; form: double-stranded DNA, one strand shown; medium: in vitro; concentration: not given; direction: higher = stronger binding; endpoint: E-score
Target: Protein C-ets-1 (ETS1, Homo sapiens, UniProt P14921, residues 1-441, full length assumed)
Notes: k-mer, scored over probes, only values ≥0.25
Target sequence (chain): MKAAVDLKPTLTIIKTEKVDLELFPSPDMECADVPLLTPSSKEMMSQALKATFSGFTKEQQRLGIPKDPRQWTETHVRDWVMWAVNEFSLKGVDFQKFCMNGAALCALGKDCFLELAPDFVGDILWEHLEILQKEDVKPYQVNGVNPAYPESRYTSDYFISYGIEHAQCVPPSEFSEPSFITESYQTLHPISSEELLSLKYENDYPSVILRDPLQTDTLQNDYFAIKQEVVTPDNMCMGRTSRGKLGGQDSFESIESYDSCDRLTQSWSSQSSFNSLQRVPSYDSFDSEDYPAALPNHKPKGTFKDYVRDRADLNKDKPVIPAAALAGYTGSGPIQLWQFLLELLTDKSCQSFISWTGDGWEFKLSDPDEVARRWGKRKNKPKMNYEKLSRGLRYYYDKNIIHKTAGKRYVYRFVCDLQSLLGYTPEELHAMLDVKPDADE
GGGAGGAA: 0.385
GGATACGA: 0.265
GGCAGGAA: 0.434
CTTCCCGC: 0.401
CGGAATAC: 0.255
ATCCGGAA: 0.473
ATCCGGAT: 0.467
AAGATCCG: 0.363
CTTCCTGA: 0.425
ACTCATCC: 0.251
CCAGGAAC: 0.254
ATACGGAT: 0.283
GTTGCGGA: 0.315
ACCCCGGA: 0.378
ATCCGCAG: 0.291
ATTTTCCG: 0.425
AGCGTCCG: 0.326
GCATCCGA: 0.405

Series 2 — method: protein binding microarray; form: double-stranded DNA, one strand shown; medium: in vitro; concentration: not given; reference: not given; direction: higher = stronger binding; endpoint: E-score
Target: Histone acetyltransferase KAT6A, winged helix 2, GST fusion (KAT6A, Homo sapiens, UniProt Q92794, residues 85-181)
Notes: 8-mer, flanks averaged, mean of 2 arrays, mostly near background
Construct (chain): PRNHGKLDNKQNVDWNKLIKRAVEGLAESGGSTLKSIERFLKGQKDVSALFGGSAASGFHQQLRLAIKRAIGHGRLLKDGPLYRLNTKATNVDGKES
AAGACGTG: -0.257
CTTACGCA: 0.0588
AAAGGGTC: 0.00144
CCGAGCGG: 0.168
ATTAGATA: -0.0534
CGCTAAAA: -0.0687
AAGTAGGT: -0.158
ACGCCGCG: 0.125
AATAGTCC: -0.113
AAACGTTA: -0.129
GAAAGGCC: -0.0375
GCTGAGAA: 0.0681
CGACGTAG: -0.16
ACTAAACA: -0.111

Series 3 — method: Sort-seq; refers to: YFP reporter; medium: E. coli; notes: PhoQ-PhoP variant library; with: 10 µM Mg2+; reference: high Mg2+ state; direction: higher = stronger signaling; endpoint: fold induction
Molecule: PhoQ, residues 284 288 289 292 302 303 TTSMTC
PhoP, residues 12 14 15 18 19 AYFRS (Escherichia coli, UniProt P23836): 1.3
PhoP, residues 12 14 15 18 19 SFCSL (Escherichia coli, UniProt P23836): 18.2
PhoP, residues 12 14 15 18 19 HHYTI (Escherichia coli, UniProt P23836): 16.7

Series 4 — target: CCNA1, cyclin fold, Cln2 fusion (human); method: yeast growth competition, sequencing; medium: yeast; notes: weak parent motif; reference: not given; direction: higher = stronger binding; endpoint: normalised enrichment score
Starting sequence: SAMHD1 docking peptide (human); ASKSRVQLFKDDP
ASKSRVKLFKDDP [Q7K]: 0.523
ASKSRVTLFKDDP [Q7T]: 0.256
ASKSRVQLFKRDP [D11R]: 0.709
ASKSRVQLTKDDP [F9T]: 0.508
ASKSRVQLFKDAP [D12A]: 0.164
ASYSRVQLFKDDP [K3Y]: 0.343
ASKSRVQFFKDDP [L8F]: -0.0415
ASKSRLQLFKDDP [V6L]: 0.504
ALKSRVQLFKDDP [S2L]: 0.285
ASKSRKQLFKDDP [V6K]: 0.549
ASKSRVQLFTDDP [K10T]: 0.275
ASFSRVQLFKDDP [K3F]: 0.0176
ASKIRVQLFKDDP [S4I]: 0.624
